# Measurements of several laboratories.
# Several values in a cell are separate wells, animals, samples, runs or records. Numbers after ± are the reported error.
# Chain of UniProt P54646 (whole entry, looked up): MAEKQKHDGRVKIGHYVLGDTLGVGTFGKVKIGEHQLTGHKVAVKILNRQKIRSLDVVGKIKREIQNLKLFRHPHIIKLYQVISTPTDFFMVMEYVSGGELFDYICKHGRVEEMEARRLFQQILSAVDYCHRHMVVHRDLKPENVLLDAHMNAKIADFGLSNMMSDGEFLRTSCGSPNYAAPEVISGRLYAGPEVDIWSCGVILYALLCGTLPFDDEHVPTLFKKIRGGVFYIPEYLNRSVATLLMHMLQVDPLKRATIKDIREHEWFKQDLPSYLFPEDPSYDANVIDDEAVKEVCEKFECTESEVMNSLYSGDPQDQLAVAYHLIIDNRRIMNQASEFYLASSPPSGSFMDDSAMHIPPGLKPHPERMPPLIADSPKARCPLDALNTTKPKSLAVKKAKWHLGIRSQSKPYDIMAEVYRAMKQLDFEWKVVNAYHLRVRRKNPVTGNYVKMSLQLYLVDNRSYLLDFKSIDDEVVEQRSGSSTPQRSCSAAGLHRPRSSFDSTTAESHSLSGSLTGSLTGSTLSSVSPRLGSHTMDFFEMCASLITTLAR
# Chain of UniProt P54619 (whole entry, looked up): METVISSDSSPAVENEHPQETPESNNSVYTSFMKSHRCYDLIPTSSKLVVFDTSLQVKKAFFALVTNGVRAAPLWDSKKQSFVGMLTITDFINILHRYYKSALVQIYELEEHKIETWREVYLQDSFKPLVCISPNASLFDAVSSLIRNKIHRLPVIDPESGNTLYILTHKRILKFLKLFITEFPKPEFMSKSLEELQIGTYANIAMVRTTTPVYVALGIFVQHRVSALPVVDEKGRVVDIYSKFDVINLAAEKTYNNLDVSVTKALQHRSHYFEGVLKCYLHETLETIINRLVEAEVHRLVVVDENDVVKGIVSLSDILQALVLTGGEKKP
# Chain of UniProt Q9Y478 (whole entry, looked up): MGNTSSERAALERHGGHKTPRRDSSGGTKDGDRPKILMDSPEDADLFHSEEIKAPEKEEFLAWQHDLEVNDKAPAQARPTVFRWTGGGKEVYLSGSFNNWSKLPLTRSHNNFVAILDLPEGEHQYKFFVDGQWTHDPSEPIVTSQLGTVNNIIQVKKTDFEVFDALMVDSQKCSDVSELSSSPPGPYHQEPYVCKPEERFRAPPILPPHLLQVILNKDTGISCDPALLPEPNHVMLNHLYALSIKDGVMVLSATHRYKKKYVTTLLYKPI
Compound,tested on,test,system,setting,scale,measurement,value
CC(C)C[C@H](NC(=O)[C@@H](CCCCNC(=O)[C@@H](Cc1ccccc1)NC(=O)CCCCCNC(=O)CN1CCN(CC(=O)O)CCN(CC(=O)O)CCN(CC(=O)O)CC1)NC(=O)[C@H](Cc1ccc(O)cc1)NC(=O)[C@H](CO)NC(=O)[C@H](Cc1c[nH]c2ccccc12)NC(=O)[C@H](Cc1c[nH]cn1)NC(=O)[C@@H]1CCC(=O)N1)C(=O)N[C@@H](CCCNC(=N)N)C(=O)N1CCC[C@H]1C(=O)NCC(N)=O [indium-111 labelled],,,"athymic nude mouse, female, pituitary","intravenous, 0.037 MBq, 2 h",,tissue uptake,38.6 ± 7.96 %ID/g
CN1CCN(Cc2ccc(C(=O)Nc3ccc4c(/C=C/c5ccccn5)n[nH]c4c3)cc2)CC1,Ba/F3 TEL-VEGFR2,"cell growth, CCK-8",,,,GI50,190 nM
COC(=O)c1cc(NC2=NC(=O)C(=Cc3ccc(N(C)C)cc3)S2)ccc1OC(C)=O,MCF7,"GC-MS, refers to: L-Tyrosine",,1 µM,relative to: DMSO,metabolite level,0.18 fold change
Cc1cc(C)nc(NC(=S)N2CCN(c3ccncc3)CC2)c1,MT-3 (high PHGDH),"cell viability, CellTiter-Glo",,4 days,,EC50,> 100000 nM
CN1CCCNC(=O)c2cccc(c2)C(=O)NCCCN(C)CCCNc2cccc3c2C(=O)c2cccc(c2C3=O)NCCC1,SAS,"RNA-Seq, refers to: ANKRD52 mRNA",,"1 µM, 6 h",relative to: untreated cells,log2 fold change,-0.677
Cc1nn(-c2cccc(N)c2)c(=O)c2cnc(Nc3ccc(N4CCNCC4)cc3)nc12,"AMPK alpha2/beta1/gamma1 (PRKAG1/PRKAA2/PRKAB1, Homo sapiens, UniProt P54619+P54646+Q9Y478)","kinase activity, inhibitor, SelectScreen kinase profiling",,,,IC50,3270 nM
CN(CCCN1CCN(C(=O)[C@H](CCCCNC(=O)CC[C@H](C(=O)O)N2CCN(CC(=O)O)CCN(CC(=O)O)CC2)NC(=O)CCOCCOCCOCCOCCN)CC1)c1ccc2nccc(C(=O)NCC(=O)N3CC(F)(F)C[C@H]3C#N)c2c1,HT-1080 cells expressing human FAP,flow cytometry,,"0.2 µM, anti-La mAb detection, 200 nM",,binding,1.52%
COc1cc(N2CCN(C(=O)C3CCCN3)CC2)ccc1Nc1ncc(Cl)c(Nc2ccccc2P(C)(C)=O)n1 (stereo not shown),NCI-H3122,flow cytometry,,"500 nM, 24 h",,G2 phase cells,6.7% and 5.12% and 5.45%
CCCC[C@H](NC(=O)COCCOCCNC(=O)CN1CCN(CC(=O)O)CCN(CC(=O)O)CC1)C(=O)N[C@H]1CC(=O)NCCCC[C@@H](C(N)=O)NC(=O)[C@H](Cc2c[nH]c3ccccc23)NC(=O)[C@H](CCCNC(=N)N)NC(=O)[C@@H](Cc2ccccc2)NC(=O)[C@H](Cc2c[nH]cn2)NC1=O [technetium-99m labelled],,,"C57 mouse, blood","intravenous, 0.037 MBq, 24 h",,tissue uptake,0.08 ± 0.03 %ID/g
Cc1nc2c(F)cc(-c3nc(Nc4ccc(CNC(=O)CCCCCCC(=O)NO)cc4)ncc3F)cc2n1C(C)C,OVCAR-5,"cell growth or viability, CCK-8",,"0.3 µM, 48 h",,inhibition,98.9%
CNC(NN=Cc1ccc([N+](=O)[O-])o1)=[S+][Au-][Cl],CAKI-1,annexin V/PI flow cytometry,,"5 µM, 72 h",,cell fraction ANV+/PI+,2.7 ± 0.4%
COc1cccc(OC)c1-c1cc(C(=O)NC2(C(=O)O)C3CC4CC(C3)CC2C4)nn1-c1ccc(C(=O)N(C)CCCN(C)CCCN(C)C(=O)[C@H](CCCCNC(=O)[C@H](CC(C)C)NC(=O)C2OC2C(=O)O)NC(=O)CN2CCN(CC(=O)[O-])CCN(CC(=O)[O-])CCN(CC(=O)[O-])CC2)cc1C(C)C.[177Lu+3] (mixture of isomers),HT-29,,,"240 min, 4 h",relative to: added activity,internalized fraction,5.43 ± 0.57%
Cc1ncsc1-c1ccc(C(C)NC(=O)C2CC(O)CN2C(=O)C(NC(=O)CCCCCCCCCCN2CCCC(Nc3ncc(Cl)c(Nc4ccccc4S(=O)(=O)C(C)C)n3)C2)C(C)(C)C)cc1 (stereo not shown),22Rv1,"RNA-seq, refers to: TP73 mRNA",,concentration not given,relative to: DMSO,log2 fold change,-2.29
Fc1ccc(Nc2nc(NC3CCCCC3)c3cc(Br)ccc3n2)cc1F,transfected HEK293 cells,"β-arrestin2 recruitment, negative allosteric modulator, BRET",,"30 min pre-incubation, β1AR ECL1/2 chimera, added: isoproterenol 1 µM",relative to: isoproterenol alone,Imax,-0.1%
C=C1CC[C@H](OCCCNC(=O)CCOCCOCCOCCOCCOCCOCCOCCOCCOCCOCCOCCOCCOCCOCCOCCOCCOCCOCCOCCOCCOCCOCCOCCOCCOCCOCCOCCOCCOCCOCCOCCOCCOCCOCCOCCOCCNC(=O)CCN2C(=O)CC(SC[C@H](NC(=O)[C@H](Cc3ccccc3)NC(=O)[C@H](CC(N)=O)NC(=O)[C@H](Cc3c[nH]cn3)NC(=O)[C@@H](NC(=O)[C@H](CC(=O)O)NC(=O)[C@H](CCC(N)=O)NC(=O)[C@H](CC(C)C)NC(=O)[C@H](CCCCN)NC(=O)[C@H](CCCCN)NC(=O)[C@H](CCCNC(=N)N)NC(=O)[C@H](CC(C)C)NC(=O)[C@H](Cc3c[nH]c4ccccc34)NC(=O)[C@H](CCC(=O)O)NC(=O)[C@@H](NC(=O)[C@H](CCCNC(=N)N)NC(=O)[C@H](CCC(=O)O)NC(=O)[C@H](CCSC)NC(=O)[C@H](CO)NC(=O)[C@H](CC(N)=O)NC(=O)[C@H](CC(C)C)NC(=O)[C@H](Cc3c[nH]cn3)NC(=O)[C@H](CCCCN)NC(=O)CNC(=O)[C@H](CC(C)C)NC(=O)[C@H](CC(N)=O)NC(=O)[C@H](Cc3c[nH]cn3)NC(=O)[C@H](CCSC)NC(=O)[C@H](CC(C)C)NC(=O)[C@H](CCC(N)=O)NC(=O)[C@@H](NC(=O)[C@H](CCC(=O)O)NC(=O)[C@H](CO)NC(=O)[C@@H](NC(=O)[C@@H](N)CO)C(C)C)[C@@H](C)CC)C(C)C)C(C)C)C(=O)O)C2=O)C/C1=C/C=C1\CCC[C@]2(C)[C@@H]([C@H](C)CCCC(C)(C)O)CC[C@@H]12 (stereo partly shown),,,"male cynomolgus monkey, plasma","subcutaneous, 0.02 mg/kg, single dose",,bioavailability,44.8%
CC(C)c1ccc(N(C)c2ccc3c(c2)OCC[C@H]3CNc2cnccc2C(=O)O)cc1,NCI-H1435,"cell growth or viability, ATP luminescence",,7 days,,IC50,≥ 10000 nM
CC(C)C[C@H](NC(=O)[C@H](Cc1ccc(O)cc1)NC(=O)[C@@H](CCCNC(=N)N)NC(=O)[C@@H](CO)NC(=O)[C@H](Cc1ccccc1)NC(=O)[C@H](CC1CCCCC1)NC(=O)[C@H](CC(=O)O)NC(=O)CN1CCN(CC(=O)O)CCN(CC(=O)O)CCN(CC(=O)O)CC1)C(=O)N[C@@H](Cc1c[nH]c2ccccc12)C(=O)N[C@@H](CO)C(=O)O [copper-64 labelled],,,"human, lower large intestine","concentration not given, 3 h",,activity concentration,1470 Bq/mL and 1970 Bq/mL and 1690 Bq/mL and 907 Bq/mL and 1150 Bq/mL and 1450 Bq/mL
Nc1ncc(-c2cc(-c3cnn(CC(F)(F)F)c3)ncc2F)nc1C(=O)NC1CNCC(F)C1 (stereo not shown),p38-delta,KINOMEscan competition binding,,1 µM,relative to: DMSO control,remaining binding,98%
COc1ccc(O)cc1-c1c[nH]c2ncc(-c3cncc(C(=O)N(C)C)c3)cc12,K562,"inhibitor, Western blot",,"concentration not given, 6 h, normoxia",,CRKL and STAT5 phosphorylation,inhibited
O=C(N1CCCC1)n1cc(-c2ccc(-c3ccccc3)cc2)nn1,mouse T cells,"N-terminal labelling proteomics, refers to: LARP4 N-terminal peptides",,"0.001 µM, 6 h",relative to: DMSO,SILAC ratio,0.94
CN(C)c1ccc(-n2cc(COC(=O)[C@]3(C)C=C(C(=O)OC(C)(C)C)C(=O)CC3)nn2)cc1,HeLa,quantitative western blot,,"concentration not given, 20 (unit not given), added: EGF",,pERK/ERK ratio,0.206
O=C(Nc1nncs1)c1cccc([C@@H]2C[C@H]2NC2CCC2)c1,SET-2,"cell growth, CellTiter-Glo",,"10 µM, 7 d",relative to: vehicle,relative growth,83% and 94.1% and 81.2%
C=CC(=O)Nc1cccc(Cn2ncc3cnc(Nc4cnn(CCOC)c4)nc32)c1,RIPK2 human,"binding, KINOMEscan",,100 nM,lower = stronger binding,percent of control,94%
CCCCCCCCCCCC(=O)N[C@@H](CO)C[C@@H](O)c1cccc(CCCCCC)c1,HeLa,"CERT activity, HPLC-MS/MS lipidomics, refers to: lactosylceramide 16",,"1 µM, 24 h, not cell-number normalised",,lactosylceramide level,21400 pmol/sample and 25800 pmol/sample and 29300 pmol/sample
CNS(=O)(=O)Nc1nccc(Cc2c(C)c3ccc(Oc4ncccc4F)cc3oc2=O)c1F,NCI-H2172,cell viability,,7 days,,IC50,> 1000 nM
CCC(=CCc1c(O)cc2c(c1O)C(=O)CC(c1ccc(O)cc1)O2)CC (stereo not shown),HeLa,annexin V/PI staining,,range over 12 to 48 µM,,necrotic cells,≤ 4.61%
CN1CC[C@@H](COc2cnc(C#N)cc2-c2ccn3nc(NC(=O)C4CC4)cc3c2)C1,"human PBMC, CD4 memory T cells",single-cell RNA-seq,,"1 µM, added: LPS",relative to: LPS alone,number of downregulated genes,5 genes
CN(C)CCN1CCN(c2ccc3nc(-c4ccc5nc(-c6ccc(C(F)(F)F)cc6)[nH]c5c4)[nH]c3c2)CC1,TK-10,SRB,,"10 µM, 48 h",,growth percent,130%
O=C(CC(=O)Nc1ccc2c(/C=C/c3ccccn3)n[nH]c2c1)Nc1ccc(Cl)c(C(F)(F)F)c1,Ba/F3 TEL-VEGFR2,"cell growth, CCK-8",,,,GI50,120 nM
CSC(=S)N/N=C(\C)c1ccc(Nc2nnc(-c3ccc(Cl)cc3)c3ccccc23)cc1,MCF7,"cell growth or viability, MTT",,1.25 µM,,cell death,90.2%
COC1CN([C@H]2CC[C@H]([C@@]3(C)Oc4c(Cl)cc(C(=O)NCc5c(SC)cc(C)[nH]c5=O)c(C)c4O3)CC2)C1,,"RNA-seq, refers to: PCGF2 mouse homolog","mouse, HT-1376 xenograft, whole blood",dose not given,relative to: vehicle,log2 fold change,0.736
Cn1ncc2cc(-c3cncc(Cl)c3N3CCC4(CCNC4=O)CC3)ccc21,LS174T,"microarray, refers to: PTGS2",,"concentration not given, 24 h, gene set COX-2",relative to: untreated cells,fold change in expression,-2.89
CCNc1cc2c(cc1C)C1(c3cc(C)c(NCC)cc3O2)c2ccccc2C(=O)N1N=Cc1c[c-]c(-c2ccccn2)cc1.Cc1c(C)c(-c2ccc(-c3ccccc3)cc2)[c-](C)c1C.[Cl-].[Ir+3],A549,annexin V/PI flow cytometry,,"1.0×IC50, 24 h",,late apoptotic cells,27.58 ± 0.21%
COc1ccccc1-c1ccncc1C(=O)Nc1nnc(OCc2ccc(Cl)cc2)s1,MDA-MB-436,,,0.75 µM,,colony count,13 and 11 and 14 and 12
CCN(CC)CC(=O)Nc1cccc(-n2cc(-c3ccc4ccc(-c5cn(-c6cccc(NC(=O)CN(CC)CC)c6)nn5)cc4c3)nn2)c1,RCC4,"PCR angiogenesis array, refers to: CCL2",,"5 x IC50, 6 h, normoxia",relative to: untreated,fold regulation,1.24
C=C(NC(=O)c1csc(-c2nc3c(cc2O)-c2nc(cs2)C(=O)NC(C(C)O)C(=O)NC(=C(C)OC)c2nc(cs2)C(=O)NC2c4nc(cs4)C(=O)NC(COC(=O)c4c5c6c(cccc6n4O)COC(=O)C(OC4CC(C)(O)C(N(C)C)C(C)O4)C2OC5)c2nc-3cs2)n1)C(N)=O (stereo not shown),,,"ICR mice, Streptococcus pneumoniae ATCC 49169 infected, immunocompromised, blood","intravenous, 32 mg/kg/day twice daily",,half-life,7.43 h
CC(C)OCCOCc1ccc(OCC(O)CN(N=O)C(C)C)cc1 (stereo not shown),Salmonella typhimurium,Ames test,TA100,"5 µg/plate, 30 % rat S9",relative to: solvent control,revertant fold increase,0.8 fold
CCOc1cncc(-c2ccc(NC(=O)C3(c4ccnc(NS(=O)(=O)C5CC5)n4)CCOCC3)nc2)n1,DMS-273,"cell growth or viability, ATP luminescence",,72 h,,IC50,998 nM
C1=[N+]2CCCC[N+]3=Cc4ccc5[n]4[Au-]23[n]2c1ccc2-c1nc2ccccc2nc1-5.F[P-](F)(F)(F)(F)F,KM12,NCI60 five-dose screen,,,,TGI,4.46 -log M
COc1ccc(NC(=O)c2ccc3[nH]c(-c4ccc(N(C)C)cc4)nc3c2)cn1,Y79,"cell growth, CellTiter-Glo",,,,EC50,9240 nM
COC(=O)c1cc(NC2=NC(=O)C(=Cc3ccc(C)cc3)S2)ccc1OC(C)=O,MCF7,"GC-MS, refers to: D-Arabinose",,1 µM,relative to: DMSO,metabolite level,-0.24 fold change
CO[C@@H]1[C@@H](OC(N)=O)[C@@H](O)[C@H](Oc2ccc3c(O)c(NC(=O)c4ccc(O)c(CC=C(C)C)c4)c(=O)oc3c2C)OC1(C)C,HCT-116 parental,,,50 µM,relative to: untreated,colony survival,81.2%
[Cl-].[Cl-].[Ru+2].c1ccc(-c2ccccn2)nc1.c1ccc(-c2ccccn2)nc1.c1ccc2cc3nc4c5cccnc5c5ncccc5c4nc3cc2c1,SK-MEL-28,resazurin,,"normoxia, added: red light 633 nm",relative to: dark EC50 over light EC50,phototherapeutic index,185
